# Experimental data collected from several papers.
# Each line is one published result; not all experiments were run side by side. ± marks the error that the study gave.
# PHO4: PHO4 1-312 (Saccharomyces cerevisiae, UniProt P07270)
# UniProt P07270, sequence (whole entry, looked up): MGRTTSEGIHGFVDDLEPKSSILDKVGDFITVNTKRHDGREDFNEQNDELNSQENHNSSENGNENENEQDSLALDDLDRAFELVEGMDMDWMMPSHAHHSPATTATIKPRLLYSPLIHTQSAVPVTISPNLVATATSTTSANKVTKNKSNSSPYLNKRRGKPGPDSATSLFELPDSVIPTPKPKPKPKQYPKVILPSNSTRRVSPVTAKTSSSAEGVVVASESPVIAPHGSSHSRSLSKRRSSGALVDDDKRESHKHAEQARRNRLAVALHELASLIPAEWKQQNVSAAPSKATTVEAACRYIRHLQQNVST
# nac full length assumed: nac full length assumed (Escherichia coli, UniProt Q47005)
# UniProt Q47005, sequence (whole entry, looked up): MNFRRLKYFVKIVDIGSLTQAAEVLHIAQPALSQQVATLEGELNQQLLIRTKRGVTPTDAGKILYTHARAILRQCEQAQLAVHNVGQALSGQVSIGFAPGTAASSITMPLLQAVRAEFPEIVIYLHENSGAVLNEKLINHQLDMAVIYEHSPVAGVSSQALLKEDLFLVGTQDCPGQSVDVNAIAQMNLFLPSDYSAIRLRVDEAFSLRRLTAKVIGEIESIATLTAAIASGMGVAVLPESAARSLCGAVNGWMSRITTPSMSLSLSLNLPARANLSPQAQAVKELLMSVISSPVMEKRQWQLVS
# CIN5 full length assumed: CIN5 full length assumed (Saccharomyces cerevisiae, UniProt P40917)
# UniProt P40917, sequence (whole entry, looked up): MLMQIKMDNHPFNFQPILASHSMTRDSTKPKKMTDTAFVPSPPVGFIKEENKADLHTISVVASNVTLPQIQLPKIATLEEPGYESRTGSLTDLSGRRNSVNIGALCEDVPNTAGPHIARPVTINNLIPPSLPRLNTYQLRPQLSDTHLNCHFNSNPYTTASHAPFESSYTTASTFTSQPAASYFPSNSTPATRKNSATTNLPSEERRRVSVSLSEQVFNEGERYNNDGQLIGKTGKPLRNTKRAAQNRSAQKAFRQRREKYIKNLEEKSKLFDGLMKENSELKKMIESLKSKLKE
# U2AF2: U2AF2 148-342 (Homo sapiens, UniProt P26368)
# UniProt P26368, sequence (whole entry, looked up): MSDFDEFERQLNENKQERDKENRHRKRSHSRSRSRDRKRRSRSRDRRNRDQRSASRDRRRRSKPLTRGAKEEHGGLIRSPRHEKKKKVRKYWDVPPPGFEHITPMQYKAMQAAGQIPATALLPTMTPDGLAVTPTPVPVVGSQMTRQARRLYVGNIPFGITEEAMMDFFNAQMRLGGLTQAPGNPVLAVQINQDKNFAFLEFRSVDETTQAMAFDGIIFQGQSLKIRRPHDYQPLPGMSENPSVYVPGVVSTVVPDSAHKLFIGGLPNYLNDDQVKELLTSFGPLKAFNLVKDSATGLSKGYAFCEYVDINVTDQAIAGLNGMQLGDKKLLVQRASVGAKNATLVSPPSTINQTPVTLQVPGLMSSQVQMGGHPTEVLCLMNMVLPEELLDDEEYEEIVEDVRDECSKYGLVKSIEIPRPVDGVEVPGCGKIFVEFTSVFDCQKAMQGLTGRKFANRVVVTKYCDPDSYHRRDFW
# TOA1/TOA2 1-286; 1-122: TOA1/TOA2 1-286; 1-122 (Saccharomyces cerevisiae)
# glnG full length assumed: glnG full length assumed (Escherichia coli, UniProt P0AFB8)
# UniProt P0AFB8, sequence (whole entry, looked up): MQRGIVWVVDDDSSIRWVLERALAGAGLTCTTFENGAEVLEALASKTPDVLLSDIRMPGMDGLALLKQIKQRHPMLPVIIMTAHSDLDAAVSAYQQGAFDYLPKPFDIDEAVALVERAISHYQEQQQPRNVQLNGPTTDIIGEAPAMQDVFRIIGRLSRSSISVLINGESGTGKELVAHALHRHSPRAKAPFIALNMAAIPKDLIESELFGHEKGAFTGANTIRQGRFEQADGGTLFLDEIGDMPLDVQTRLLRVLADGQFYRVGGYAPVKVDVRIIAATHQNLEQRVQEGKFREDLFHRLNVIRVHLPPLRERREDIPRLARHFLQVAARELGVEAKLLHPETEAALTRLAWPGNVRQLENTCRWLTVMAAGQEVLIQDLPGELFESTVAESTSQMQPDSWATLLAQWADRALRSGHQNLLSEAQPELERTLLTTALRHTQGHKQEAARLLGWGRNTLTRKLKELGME
# CBF1: CBF1 1-351 (Saccharomyces cerevisiae, UniProt P17106)
# UniProt P17106, sequence (whole entry, looked up): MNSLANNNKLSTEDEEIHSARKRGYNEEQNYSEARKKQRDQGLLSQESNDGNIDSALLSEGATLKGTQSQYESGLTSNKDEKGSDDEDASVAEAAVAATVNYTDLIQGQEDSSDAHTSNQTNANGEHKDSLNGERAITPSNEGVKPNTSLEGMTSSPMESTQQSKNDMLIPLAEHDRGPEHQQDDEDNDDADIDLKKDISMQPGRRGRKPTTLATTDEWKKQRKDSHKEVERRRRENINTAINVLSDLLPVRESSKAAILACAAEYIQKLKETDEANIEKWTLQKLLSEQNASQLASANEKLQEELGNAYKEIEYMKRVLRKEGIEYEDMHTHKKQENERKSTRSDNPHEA
# pdhR full length assumed: pdhR full length assumed (Escherichia coli, UniProt P0ACL9)
# UniProt P0ACL9, sequence (whole entry, looked up): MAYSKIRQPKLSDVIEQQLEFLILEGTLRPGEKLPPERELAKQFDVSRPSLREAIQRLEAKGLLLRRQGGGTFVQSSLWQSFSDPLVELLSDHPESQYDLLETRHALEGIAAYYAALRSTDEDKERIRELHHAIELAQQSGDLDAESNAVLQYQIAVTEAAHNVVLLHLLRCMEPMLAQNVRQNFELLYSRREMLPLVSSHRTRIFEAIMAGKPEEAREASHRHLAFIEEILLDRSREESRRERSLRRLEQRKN
# TDG: TDG 1-410 (Homo sapiens, UniProt Q13569)
# UniProt Q13569, sequence (whole entry, looked up): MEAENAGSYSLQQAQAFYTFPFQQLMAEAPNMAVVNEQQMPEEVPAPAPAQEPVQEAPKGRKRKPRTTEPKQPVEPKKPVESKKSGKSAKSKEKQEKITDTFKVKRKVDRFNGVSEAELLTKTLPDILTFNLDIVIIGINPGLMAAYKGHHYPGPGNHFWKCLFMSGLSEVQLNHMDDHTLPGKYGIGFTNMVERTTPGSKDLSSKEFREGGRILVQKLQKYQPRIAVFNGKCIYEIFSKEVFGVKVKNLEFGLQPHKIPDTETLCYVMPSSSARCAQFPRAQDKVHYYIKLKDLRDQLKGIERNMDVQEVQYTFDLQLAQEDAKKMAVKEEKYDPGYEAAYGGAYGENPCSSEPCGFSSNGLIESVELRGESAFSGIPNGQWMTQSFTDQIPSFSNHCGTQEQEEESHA
# SPT15 full length assumed: SPT15 full length assumed (Saccharomyces cerevisiae, UniProt P13393)
# UniProt P13393, sequence (whole entry, looked up): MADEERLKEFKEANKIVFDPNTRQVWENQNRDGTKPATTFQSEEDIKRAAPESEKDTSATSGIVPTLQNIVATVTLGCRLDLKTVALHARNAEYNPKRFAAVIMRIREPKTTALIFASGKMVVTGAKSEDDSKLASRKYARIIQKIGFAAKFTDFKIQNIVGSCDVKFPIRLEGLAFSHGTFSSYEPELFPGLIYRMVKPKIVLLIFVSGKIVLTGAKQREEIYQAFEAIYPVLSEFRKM
# PHO4 full length assumed: PHO4 full length assumed (Saccharomyces cerevisiae, UniProt P07270)
# SART3: SART3 697-786 (Homo sapiens, UniProt Q15020)
# T1: TOA1/TOA2 1-286; 1-122 (Saccharomyces cerevisiae); chain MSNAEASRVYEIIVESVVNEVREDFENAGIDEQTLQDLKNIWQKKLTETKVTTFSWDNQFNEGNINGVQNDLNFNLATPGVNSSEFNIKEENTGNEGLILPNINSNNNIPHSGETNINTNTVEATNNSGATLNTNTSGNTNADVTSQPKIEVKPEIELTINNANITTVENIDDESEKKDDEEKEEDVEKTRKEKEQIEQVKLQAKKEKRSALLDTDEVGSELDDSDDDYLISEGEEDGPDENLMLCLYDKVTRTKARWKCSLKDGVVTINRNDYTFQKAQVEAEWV; chain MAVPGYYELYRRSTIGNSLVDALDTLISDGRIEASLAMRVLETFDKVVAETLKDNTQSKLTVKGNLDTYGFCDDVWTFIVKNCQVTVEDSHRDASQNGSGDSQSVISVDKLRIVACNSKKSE
# UniProt P09874, sequence (whole entry, unmodified, looked up): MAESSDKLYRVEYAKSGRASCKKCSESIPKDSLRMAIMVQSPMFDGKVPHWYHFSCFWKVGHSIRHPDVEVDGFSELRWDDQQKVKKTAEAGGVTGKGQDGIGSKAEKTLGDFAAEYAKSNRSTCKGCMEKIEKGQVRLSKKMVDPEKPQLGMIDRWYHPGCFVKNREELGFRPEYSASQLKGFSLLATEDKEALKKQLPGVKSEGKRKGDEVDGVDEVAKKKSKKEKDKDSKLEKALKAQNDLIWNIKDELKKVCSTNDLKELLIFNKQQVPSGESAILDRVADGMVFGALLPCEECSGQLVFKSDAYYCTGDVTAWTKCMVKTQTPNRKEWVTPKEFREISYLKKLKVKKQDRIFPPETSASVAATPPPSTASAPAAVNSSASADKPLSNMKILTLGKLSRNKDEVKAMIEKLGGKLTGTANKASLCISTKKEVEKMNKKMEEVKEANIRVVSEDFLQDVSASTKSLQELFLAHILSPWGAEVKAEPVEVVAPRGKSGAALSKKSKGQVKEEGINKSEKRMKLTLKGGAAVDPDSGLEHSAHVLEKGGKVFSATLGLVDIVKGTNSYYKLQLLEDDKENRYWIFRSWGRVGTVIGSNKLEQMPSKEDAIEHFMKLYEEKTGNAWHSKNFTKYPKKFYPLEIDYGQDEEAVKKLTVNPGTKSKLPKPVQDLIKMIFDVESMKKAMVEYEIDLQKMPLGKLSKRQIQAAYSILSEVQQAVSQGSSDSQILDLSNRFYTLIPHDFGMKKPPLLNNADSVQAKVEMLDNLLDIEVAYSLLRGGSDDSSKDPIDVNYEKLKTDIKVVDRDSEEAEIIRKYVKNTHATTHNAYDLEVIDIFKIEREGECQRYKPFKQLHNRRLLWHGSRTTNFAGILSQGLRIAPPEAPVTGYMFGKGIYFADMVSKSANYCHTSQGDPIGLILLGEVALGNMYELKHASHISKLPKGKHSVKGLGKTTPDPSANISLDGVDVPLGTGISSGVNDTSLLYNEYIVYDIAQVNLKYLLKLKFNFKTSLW
# UniProt Q5FWF5, sequence (whole entry, looked up): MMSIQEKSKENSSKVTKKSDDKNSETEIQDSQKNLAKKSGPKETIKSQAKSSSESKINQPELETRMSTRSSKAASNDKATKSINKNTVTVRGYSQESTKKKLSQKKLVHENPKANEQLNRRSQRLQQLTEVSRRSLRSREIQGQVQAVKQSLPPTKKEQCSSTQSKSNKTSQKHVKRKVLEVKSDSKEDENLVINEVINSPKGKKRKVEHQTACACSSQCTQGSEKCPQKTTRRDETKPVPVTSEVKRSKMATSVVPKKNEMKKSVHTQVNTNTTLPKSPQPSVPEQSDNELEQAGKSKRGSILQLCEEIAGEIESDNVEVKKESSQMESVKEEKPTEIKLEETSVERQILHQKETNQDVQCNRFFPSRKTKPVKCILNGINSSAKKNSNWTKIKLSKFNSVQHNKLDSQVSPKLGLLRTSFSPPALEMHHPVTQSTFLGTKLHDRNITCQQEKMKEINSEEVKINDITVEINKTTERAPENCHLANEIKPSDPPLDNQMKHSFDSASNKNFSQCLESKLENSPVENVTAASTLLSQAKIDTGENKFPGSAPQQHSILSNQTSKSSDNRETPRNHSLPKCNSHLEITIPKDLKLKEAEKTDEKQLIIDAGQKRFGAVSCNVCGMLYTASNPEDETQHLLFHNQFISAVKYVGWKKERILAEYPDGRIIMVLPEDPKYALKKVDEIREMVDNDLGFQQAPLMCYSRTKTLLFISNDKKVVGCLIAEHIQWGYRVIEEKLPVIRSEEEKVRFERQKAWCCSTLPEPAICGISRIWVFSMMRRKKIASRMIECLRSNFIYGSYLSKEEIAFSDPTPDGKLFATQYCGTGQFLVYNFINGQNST
Oligonucleotide,target,assay,system,setting,Kd [µM]
CAATACACTGTTATCAGACACACGTGGCGAGCTACTCGTTCGGTTATCCGGCGGTATGAC (dsDNA),PHO4,MITOMI,"double-stranded DNA, one strand shown",not purified,0.091 ± 0.002
GTAAAGTAGGAACGGTATTAATAGAAATGATACTAAAGTACGAAATAATAAACTGGAATTT (dsDNA),nac full length assumed,BLI,"double-stranded DNA, one strand shown",,0.00668
CGCTGATCACGTGATGACGTGATTACGTGCAGACGTGCATACGTGCCCACGTGCCCTCCGGCGGTATGAC (dsDNA),CIN5 full length assumed,MITOMI,"double-stranded DNA, one strand shown",not purified,0.79 ± 0.06
UCAUGUCUU (ssRNA),U2AF2,sequencing of bound RNA,RNA,motif only,7.03
GAGGAGGAGGAGGAG (ssRNA),"ECD 1-644 (Homo sapiens, UniProt O95905)",FP,RNA,,7.1 ± 1.9
CATTCGCGCATTATAAGTAATGGTCATGGAACTCATCATAAATGAGACTTTTACCTTATGA (dsDNA),nac full length assumed,BLI,"double-stranded DNA, one strand shown",,0.0202
"CCATCGCTACC (dsDNA; blunt, cis-N2-BPDE-dG at position 6)","HMGB3 full length assumed (Homo sapiens, UniProt O15347)",fluorescence anisotropy,"double-stranded DNA, one strand shown",,0.006 ± 0.0009
CCCCCGCGCCTACGCAAGTTTTCCGGATCCGTCCATCAAGTCAATCGGTCC (dsDNA; 5'-amino-C6 primer),"T1, TOA1/TOA2 1-286; 1-122 (Saccharomyces cerevisiae)",array,"double-stranded DNA, one strand shown",TFIIA alone,0.0931 ± 0.0324
TCGTTCCCGCAGCTTGCCAGACGCGATTTCATAGTGGAGGCCTCCAGCAATCTTGAACAC (ssDNA),"ESCO1 1-200 (Homo sapiens, UniProt Q5FWF5)",EMSA,single-stranded DNA,apparent,0.021
CGCATAATTACCCAATTACCGAATTACCTAATTACGCAATTACGGAATTACGTAACTCCGGCGGTATGAC (dsDNA),CIN5 full length assumed,MITOMI,"double-stranded DNA, one strand shown",not purified,0.12 ± 0.01
TTGACAAAATTTGAAAGTTGGAAAAATTTTCCAATAAATAGAGGTAGGAATAAAATGGCAA (dsDNA),glnG full length assumed,BLI,"double-stranded DNA, one strand shown",,13
CAATACACTGTTATCAGAGACACGTGTCGAGCTACTCGTTCGGTTATCCGGCGGTATGAC (dsDNA),CBF1,MITOMI,"double-stranded DNA, one strand shown",not purified,0.104 ± 0.005
AGATCTCCATCCTTGGGATATGGCTACCAGAAAGTAAAGGGACGATACAAGTCAAGTGAGA (dsDNA),pdhR full length assumed,BLI,"double-stranded DNA, one strand shown",,6.11
DNA 1 TGTGTCACCACTGCTCACGTACAGAGCTG / DNA 2 CAGCTCTGTACGTGAGCAGTGGTGACAC (dsDNA; 5' 1-nt overhang),TDG,EMSA,double-stranded DNA,,0.047
TTTGCGTGGGCTGTGGTGCTTT (ssDNA),"traI 309-569 (Escherichia coli, UniProt P14565)",fluorescence titration,single-stranded DNA,,1.6 ± 1.3
CGCAAAAACAACUAAAUCAAAACCAA (ssRNA; unstructured),"PARP1 1-1014 (Homo sapiens, UniProt P09874)",fluorescence polarization,RNA,Hill coefficient 1.07,0.193 ± 0.011
GUCUUGCUC (ssRNA),U2AF2,sequencing of bound RNA,RNA,motif only,0.9
GGTAACTTAGCGTCTCGTTGTGATTAAGTTTGACGAGGAATGGAATGCGATGCGCATAACG (dsDNA),glnG full length assumed,BLI,"double-stranded DNA, one strand shown",,6.41
GAATTCCTATAAAGTAATGTGGAGCTCCGTTCGTCTCAAGTCAATCGGTCC (dsDNA; 5'-amino-C6 primer),SPT15 full length assumed,array,"double-stranded DNA, one strand shown",TBP alone,0.00121 ± 7e-05
AGUUUUUCU (ssRNA),U2AF2,sequencing of bound RNA,RNA,motif only,0.48
RNA 1 GCGGUGUAUAGCCUAAUCUUUACCGC / RNA 2 GCGGUAAAGAUUAGGCUAUACACCGC (dsRNA),"MECP2 1-486 (Homo sapiens, UniProt P51608)",fluorescence polarization,double-stranded RNA,Hill coefficient 0.74,0.0519 ± 0.0097
TCCTGAAGGAGCGCCTATAAAAGGTCCTATCGTCGTCAAGTCAATCGGTCC (dsDNA; 5'-amino-C6 primer),SPT15 full length assumed,array,"double-stranded DNA, one strand shown",TBP alone,0.00378 ± 0.00038
GCAGCCCTGGTTAAAAACAAGGTTTATAAATATTGGTTTAAAAGCAGGTTAAAAGACAGGTTAGCGGTGG (ssDNA),"trfA 98-382 G254D/S267L/K303E (Escherichia coli, UniProt P07676)",SPR,single-stranded DNA,,0.0567
CAATACACTGTTATCAGACACACGTGCCGAGCTACTCGTTCGGTTATCCGGCGGTATGAC (dsDNA),PHO4,MITOMI,"double-stranded DNA, one strand shown",not purified,0.074 ± 0.002
TCCTGAAGGGGCGCCCTAGCTTGGTCCTATCGTCGTCAAGTCAATCGGTCC (dsDNA; 5'-amino-C6 primer),SPT15 full length assumed,array,"double-stranded DNA, one strand shown",TBP alone,0.00153 ± 0.00014
"CGCGCAAGGACA (ssRNA; single strand, N6-methyladenosine at A10)","FTO (Homo sapiens, UniProt Q9C0B1)",FRET titration,RNA,"together with: ascorbic acid 2 mM, alpha-ketoglutarate 300 µM, NiSO4",0.0038 ± 0.0007
AUCAUGUGCCAUAC (ssRNA),"fbf-1 162-614 (Caenorhabditis elegans, UniProt Q9N5M6)",EMSA,RNA,,0.041
UAUUUGAUU (ssRNA),U2AF2,sequencing of bound RNA,RNA,motif only,5.14
CGCGTCGACGTGTCTACGTGTGCACGTGTGGACGTGTGTACGTGTTCACGTGTTGCTCCGGCGGTATGAC (dsDNA),PHO4 full length assumed,MITOMI,"double-stranded DNA, one strand shown",not purified,0.032 ± 0.003
GGUGCCUCCAUCACCUGGUCUUUGUAGACCACCUGAUGGAGGCACCC (RNA; hairpin with terminal loop),"GATA1 200-319 (Homo sapiens, UniProt P15976)",fluorescence anisotropy,folded RNA,,0.062 ± 0.015
CTCAGGAATTCCTATAGAGTAATGTGGAGCTCAGTTCAAGTCAATCGGTCC (dsDNA; 5'-amino-C6 primer),SPT15 full length assumed,array,"double-stranded DNA, one strand shown",TBP alone,0.00197 ± 0.00016
ACAAAAGGGGAGTGCTGAAGGAGTCTGGGCGGGCAATTGGTATAACCAATGTGAAATAAAA (dsDNA),pdhR full length assumed,BLI,"double-stranded DNA, one strand shown",,0.00395
GGAACGAUACAGAGAAGAUUAG (ssRNA),SART3,ITC,RNA,,0.94 ± 0.16
CACUUCUUA (ssRNA),U2AF2,sequencing of bound RNA,RNA,motif only,9.6
TCCTGAAGGGGAGCCTATAAAAGGTCCTATCGTCGTCAAGTCAATCGGTCC (dsDNA; 5'-amino-C6 primer),SPT15 full length assumed,array,"double-stranded DNA, one strand shown",TBP alone,0.0039 ± 0.00024
CGGCAGGACGUACAUCCCUCCCGGCUCCCCUCCCGCUGGCCUGCCG (RNA; extended stem-loop),"PARP1 216-1014 del1-215 (Homo sapiens, UniProt P09874)",fluorescence polarization,folded RNA,Hill coefficient 0.46,0.0038 ± 0.0008
TTCAATGCTCAATAATTGTGCAACAAACCTGGCGTGCACCATGATGATCATTCCATCAGGT (dsDNA),glnG full length assumed,BLI,"double-stranded DNA, one strand shown",,0.0294
CAATACACTGTTATCAGACACACGTGTCGACCTACTCGTTCGGTTATCCGGCGGTATGAC (dsDNA),PHO4,MITOMI,"double-stranded DNA, one strand shown",not purified,0.121 ± 0.003
CTGAAGGGGGGGCTATAAAAGAAGGTGGGGGCTCCTCAAGTCAATCGGTCC (dsDNA; 5'-amino-C6 primer),SPT15 full length assumed,array,"double-stranded DNA, one strand shown",TBP alone,0.0775 ± 0.0475
TTCTGATCACCGACATGAAAGCTAACAGGAACGTTAAGTGCCTTAGCTCCGGCTACCGTGC (dsDNA),"ulaR full length assumed (Escherichia coli, UniProt P0A9W0)",BLI,"double-stranded DNA, one strand shown",,12.1
"ATGGCGGGCTATGATCCTAT (dsDNA; blunt, N2-nBu-dG at position 7)","SUB1 full length assumed (Homo sapiens, UniProt P53999)",fluorescence anisotropy,"double-stranded DNA, one strand shown",,0.0013 ± 0.0005
UUCAGAGGA (ssRNA),"SRSF1 1-248 S225A/S227A/S231A/S234A/S238A/S242A/S244A/S246A (Homo sapiens, UniProt Q07955)",fluorescence polarization,RNA,,0.5 ± 0.04
ACAGGGGTGTGGGGACAGGGGTGTGGGG (G-quadruplex DNA (Homo sapiens); intramolecular G4),IGF2 fragment (Homo sapiens),SPR,folded DNA,together with: IGF-2 100-750 nM,0.03
AGGATCAGCCATTTGGCACACCAAGTGGTCCAAATGATGATTTAGG (dsDNA),"Protein BZR1 homolog 1-304 (Oryza sativa, UniProt A0A0P0UYT3)",MST,"double-stranded DNA, one strand shown",,0.0028
CAATACACTGTTATCAGACACACGTGACGAGCTACTCGTTCGGTTATCCGGCGGTATGAC (dsDNA),CBF1,MITOMI,"double-stranded DNA, one strand shown",not purified,0.03 ± 0.002
GAUUUGUCU (ssRNA),U2AF2,sequencing of bound RNA,RNA,motif only,10.6
"DNA TGAGGATGTATATATCTGAUGCGCCGGTGGAGC / RNA GCUCCACCGGCGCGUACGAUAUAUACAUCCUCA (DNA:RNA hybrid; blunt, G-U mispair)",TDG,EMSA,DNA-RNA hybrid,,0.063
CGCGGACACGTGTACACGTTCACACGTTGACACGTTTACACTACCACACTACGACCTCCGGCGGTATGAC (dsDNA),PHO4 full length assumed,MITOMI,"double-stranded DNA, one strand shown",not purified,0.13 ± 0.01
CAATACACTGTTATCAGACACACGTGTCGAACTACTCGTTCGGTTATCCGGCGGTATGAC (dsDNA),CBF1,MITOMI,"double-stranded DNA, one strand shown",not purified,0.153 ± 0.007
GAUACAGAG (ssRNA),SART3,ITC,RNA,,1.8 ± 0.4
CTTGAAGGGGGGCTATAAAAGGGGGTGGGGGCGCGTCAAGTCAATCGGTCC (dsDNA; 5'-amino-C6 primer),"T1, TOA1/TOA2 1-286; 1-122 (Saccharomyces cerevisiae)",array,"double-stranded DNA, one strand shown",TFIIA alone,0.134 ± 0.0677
CGCCACGTGGTGACGTGGTTACGTGTAGACGTGTATACGTGTCCACGTGTCGACGCTCCGGCGGTATGAC (dsDNA),PHO4 full length assumed,MITOMI,"double-stranded DNA, one strand shown",not purified,0.064 ± 0.006
GUUUCUUUU (ssRNA),U2AF2,sequencing of bound RNA,RNA,motif only,0.33
CAATACACTGTTATCAAACACACGTGTCGAGCTACTCGTTCGGTTATCCGGCGGTATGAC (dsDNA),CBF1,MITOMI,"double-stranded DNA, one strand shown",not purified,0.204 ± 0.013
UGUAUUUUU (ssRNA),U2AF2,sequencing of bound RNA,RNA,motif only,7.7
CAATACACTGTTATCAGACGCACGTGTCGAGCTACTCGTTCGGTTATCCGGCGGTATGAC (dsDNA),PHO4,MITOMI,"double-stranded DNA, one strand shown",not purified,0.066 ± 0.002
